# Experimental data gathered from unrelated publications.
# Each numbered part is a random draw from the data of one study; scales do not carry over between parts.
# UniProt Q14576, sequence (20-367, looked up): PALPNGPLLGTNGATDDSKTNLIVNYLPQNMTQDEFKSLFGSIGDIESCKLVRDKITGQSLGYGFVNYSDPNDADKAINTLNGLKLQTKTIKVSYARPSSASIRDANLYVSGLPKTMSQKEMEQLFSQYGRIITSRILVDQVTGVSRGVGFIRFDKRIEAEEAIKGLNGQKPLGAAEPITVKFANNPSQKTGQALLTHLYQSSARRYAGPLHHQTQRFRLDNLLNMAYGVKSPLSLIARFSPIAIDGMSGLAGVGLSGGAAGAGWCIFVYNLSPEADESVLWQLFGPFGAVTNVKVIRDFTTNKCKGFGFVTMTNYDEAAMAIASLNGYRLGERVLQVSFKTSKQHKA

# Set 1
# Target: Interferon regulatory factor 5, full length, phosphomimetic (IRF5, Homo sapiens, UniProt Q13568-2, residues 1-514, K96S/S451D/S453D/S456D/S462D)
# Technique: protein-binding microarray
# Molecule type: double-stranded DNA, one strand shown
# Matrix: in vitro
# Concentration: 250 nM
# Setting: 60-bp whole probe
# With: salmon DNA 0.4 mg/ml
# Baseline: random background probes
# Direction: higher = stronger binding
# Constant ends, left off below: GCCTAGCAC … GTCTTGATTCGCTTGACGCTGCTG
Sequence,log fluorescence [z-score]
TCACTTATTGCTTCCTCACTGTGCTAG,0.662
GACGGTATCGGGTTTCGTGACGTGCTA,3.06
CCTCCTCTCTCTTTCCACTTGTGCTAG,0.565
TCACCTCTCTGTCCCCCACTGTGCTAG,0.213
TTAGGTTCCGGATTCGGTTAGTGCTAG,0.71
GACGGTATCCTTCTCCCGACGTGCTAG,0.309
GACGATCTCAGTCTCGAAACGTGCTAG,0.566

# Set 2
# Target: Histone acetyltransferase KAT6A, winged helix 2, GST fusion (KAT6A, Homo sapiens, UniProt Q92794, residues 85-181)
# Technique: protein binding microarray
# Molecule type: double-stranded DNA, one strand shown
# Matrix: in vitro
# Concentration: not given
# Setting: 8-mer, flanks averaged, mean of 2 arrays, mostly near background
# Baseline: not given
# Direction: higher = stronger binding
# Construct (chain): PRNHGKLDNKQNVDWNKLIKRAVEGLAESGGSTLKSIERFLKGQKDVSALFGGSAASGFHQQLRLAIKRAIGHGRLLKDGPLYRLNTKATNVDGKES
Sequence,E-score
ACGCAAAC,0.0729
GTATCATA,0.211
ACCCGTTA,-0.0236
GATTGAGC,0.114
CAAGTCTG,-0.159
AAGCTGTC,-0.205
ACGTTATG,-0.204

# Mixed results
Substance,target,test,test system,conditions,how to read,quantity,value
"PhoQ, residues 284 288 289 292 302 303 SSCCRF","PhoP, residues 12 14 15 18 19 VQALL (Escherichia coli, UniProt P23836)","Sort-seq, measured: YFP reporter",E. coli,"PhoQ-PhoP variant library, with: 10 µM Mg2+","baseline: high Mg2+ state, higher = stronger signaling",fold induction,9.65
AAAAAAAA (biotin),"ELAV-like protein 3, RRM domains 1-3 (ELAVL3, Homo sapiens, UniProt Q14576, residues 20-367)",protein domain microarray,"RNA, in vitro","not given, poly(A) 8-mer RNA, whole probe, immobilized GST-fusion domains, most near background","baseline: GST loading signal, higher = stronger binding",signal ratio,0.058

# For quick reference, copied from above (set 1):
Sequence,log fluorescence [z-score]
TCACCTCTCTGTCCCCCACTGTGCTAG,0.213
